Results of several laboratories.
Compare with care: the assays were run in different laboratories. ± gives the spread as reported.

Structure (SMILES)	tested on	test	system	conditions	quantity	result
CC[C@H](C)C(=O)N1CCC(NC(=O)Nc2ccc(OC(F)(F)F)c(F)c2)CC1			human, plasma	oral, 8 mg, single dose, healthy volunteers	half-life	59.1 h
CN[C@](C)(C[18F])C(=O)O	DU-145 tumour model		host not given, blood	1 h, tumour-bearing	tracer uptake	1.1 %ID/g
COc1cc(C(=O)NCCOCCOCCOCCNC(=O)c2ccc([18F])nc2)ccc1NC(=O)C1NC(CC(C)(C)C)C(C#N)(c2ccc(Cl)cc2F)C1c1cccc(Cl)c1F (centres unmarked)	SJSA-1 tumour model		host not given, bone	1 h, tumour-bearing	tracer uptake	0.61 %ID/g
CN(C)CC1CCCCC1(O)c1cccc(O)c1 (centres unmarked)	P-glycoprotein		Caco-2 TC7	1 µM, 3 h, pH 7.4, together with: elacridar 4 µM	efflux ratio	1.2
O=C(O)CCC(NP(=O)(O)OCCC[C@@H](NC(=O)CCC(NC(=O)CCCCCNC(=O)c1ccc([18F])cc1)C(=O)O)C(=O)O)C(=O)O (some centres unmarked)	PC-3 tumour model		host not given, blood	intravenous, 2 h, tumour-bearing	tracer uptake	0.05 %ID/g
C[C@@](O)(C(F)F)[C@H](NC(=O)c1ccc(C#CC#CC2CC2)cc1)C(=O)NO			CD-1 mouse	oral, 40 mg/kg, not fasted	CL/F	8.28 ± 4.8 L/h/kg
O=C(O)CCC(NP(=O)(O)OCCC[C@@H](NC(=O)CCC(NC(=O)CCCCCNC(=O)CCCCCNC(=O)c1ccc([18F])cc1)C(=O)O)C(=O)O)C(=O)O (some centres unmarked)	PC-3 tumour model		host not given, spleen	intravenous, 2 h, tumour-bearing	tracer uptake	0.14 %ID/g
COc1ccc(CNc2nc(N3CCC[C@H]3CO)ncc2C(=O)NNC(=O)c2cnc(N3CCC[C@H]3CO)nc2NCc2ccc(OC)c(Cl)c2)cc1Cl	Salmonella typhimurium		TA97a	1000 µg/plate, 48 h, together with: rat liver S9	revertant count	38 ± 7
CCC(=O)N(C)c1ccc(Cl)c(Cl)c1	Salmonella typhimurium	Ames test	TA100	5.00 mg/plate, without S9	revertant colonies	0 revertants/plate
O=C(O)CCC(NP(=O)(O)OCCC[C@@H](NC(=O)CCC(NC(=O)c1ccc([18F])cc1)C(=O)O)C(=O)O)C(=O)O (some centres unmarked)	CWR22Rv1 tumour model		host not given, kidney	intravenous, 1 h, tumour-bearing	tracer uptake	8.94 %ID/g
COc1ccc(CNc2nc(N3CCC[C@H]3CO)ncc2C(=O)NN)cc1Cl	Salmonella typhimurium		TA102	250 µg/plate, together with: rat liver S9	revertant count	223 ± 12

Some of these lines once more:
Structure (SMILES)	tested on	test	system	conditions	quantity	result
CN(C)CC1CCCCC1(O)c1cccc(O)c1 (centres unmarked)	P-glycoprotein		Caco-2 TC7	1 µM, 3 h, pH 7.4, together with: elacridar 4 µM	efflux ratio	1.2
O=C(O)CCC(NP(=O)(O)OCCC[C@@H](NC(=O)CCC(NC(=O)CCCCCNC(=O)c1ccc([18F])cc1)C(=O)O)C(=O)O)C(=O)O (some centres unmarked)	PC-3 tumour model		host not given, blood	intravenous, 2 h, tumour-bearing	tracer uptake	0.05 %ID/g
